Experimental data collected from several papers.
Protocols differ between the studies behind these lines. ± gives the spread as reported.
Organism: Bacillus cereus

SMILES | strain | dose | time | temperature | setting | endpoint | result
CC(=O)NC1C(OC2OC(CC(O)C3OC(n4ccc(=O)[nH]c4=O)C(O)C3O)C(O)C(O)C2NC(=O)COCc2ccc(N3CCC(Oc4ccc(OC(F)(F)F)cc4)CC3)cc2)OC(CO)C(O)C1O (stereo not shown) | ATCC 1479 | – | – | – | – | MIC | > 50 µg/mL
N=C(N)NCCC[C@@H]1NC(=O)[C@H](CCCNC(=N)N)NC(=O)[C@H](CCCNC(=N)N)NC(=O)[C@H](CCCNC(=N)N)NC(=O)[C@H](Cc2c[nH]c3ccccc23)NC(=O)[C@H](CCCNC(=N)N)NC(=O)[C@H](CCCNC(=N)N)NC(=O)[C@@H](N)CCn2cc(nn2)C[C@@H](C(N)=O)NC1=O | – | – | 24 h | 37 °C | – | MIC | 125 µg/mL
CCCCCCCCCCCCCCCCCCCCCCSCC1OC(OC2C(N)CC(N)C(OC3OC(CN)C(O)CC3N)C2O)C(O)C(N)C1O (stereo not shown) | ATCC 11778 | – | – | – | – | MIC | > 150 µg/mL
CC(/C=C/C(O)=C1/C(=O)CNC1=O)=C\[C@@H](C)[C@H]1O[C@@]2(C)O[C@H](C(=O)[C@@H]3O[C@@]32CO)[C@@H]1C | – | – | – | – | – | MIC | 3.13 µM
CCCCCCCCCCCC[S+]([O-])CC1OC(OC2C(N)CC(N)C(OC3OC(CN)C(O)CC3N)C2O)C(O)C(N)C1O (mixture of isomers) | ATCC 11778 | – | – | – | – | MIC | 9.4 µg/mL
CC(=O)NC1C(OC2OC(CC(O)C3OC(n4ccc(=O)[nH]c4=O)C(O)C3O)C(O)C(O)C2NC(=O)C=CCCCCCCCCCC(C)C)OC(CO)C(O)C1O (stereo not shown) | ATCC 1479 | – | – | – | – | MIC | > 50 µg/mL
CN1CC(=O)N=C1N.C[C@H](CCC(=O)O)[C@H]1CC[C@H]2[C@@H]3CC[C@@H]4C[C@H](O)CC[C@]4(C)[C@H]3C[C@H](O)[C@]12C | TISTR 035 | 1 mg per disc | 18 to 24 h | 37 °C | 6 mm disc | inhibition zone diameter | 14.7 ± 0.5 mm
N=C(N)NCCC[C@@H]1NC(=O)[C@H](CCCNC(=N)N)NC(=O)[C@H](CCCNC(=N)N)NC(=O)[C@H](CCCNC(=N)N)NC(=O)[C@H](Cc2c[nH]c3ccccc23)NC(=O)[C@H](CCCNC(=N)N)NC(=O)[C@H](CCCNC(=N)N)NC(=O)[C@@H](N)CCCn2cc(nn2)C[C@@H](C(N)=O)NC1=O | – | – | 24 h | 37 °C | – | MIC | 125 µg/mL
CCCCCCSCC1OC(OC2C(N)CC(N)C(OC3OC(CN)C(O)CC3N)C2O)C(O)C(N)C1O (stereo not shown) | ATCC 11778 | – | – | – | – | MIC | > 150 µg/mL
CC(CCC(=O)[O-])C1CCC2C3CCC4CC(O)CCC4(C)C3CC(O)C12C.C[N+](C)(C)CC(O)CC(=O)O (stereo not shown) | TISTR 035 | 1 mg per disc | 18 to 24 h | 37 °C | 6 mm disc | inhibition zone diameter | 13.6 ± 1.4 mm
